Measured values collected from several papers.
A part holds a random share of what one study measured. Substitutions count along the parent as printed.

Series 1
Target: CCNB1, cyclin fold, Cln2 fusion (human)
Technique: yeast growth competition, sequencing
Sample: yeast
Setting: weak parent motif
Reference: not given
Reading: higher = stronger binding
Quantity: normalised enrichment score
Starting sequence: GMNC docking peptide (human); KNAKRNLSSEFAN
KNAKRNLDSEFAN [S8D]: 0.228
KNAKRNLSAEFAN [S9A]: 0.248
KNAKRNLFSEFAN [S8F]: 0.337
KNAKRNLSSEFRN [A12R]: 0.0898
KNAKRNLTSEFAN [S8T]: -0.533
KNAKRNLSSEFEN [A12E]: 0.241

Series 2
Target: Hepatocyte nuclear factor 3-beta, forkhead domain (FOXA2, Homo sapiens, UniProt Q9Y261, residues 142-269)
Technique: protein-binding microarray
Form: double-stranded DNA, one strand shown
Sample: in vitro
Tested at: not given
Setting: k-mer, scored over probes, only values ≥0.25
Reading: higher = stronger binding
Quantity: E-score
Residues (chain): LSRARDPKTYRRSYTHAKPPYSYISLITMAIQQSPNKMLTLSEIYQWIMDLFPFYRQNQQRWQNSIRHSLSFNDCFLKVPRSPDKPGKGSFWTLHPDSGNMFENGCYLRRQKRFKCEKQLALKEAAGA
ATAAACAA: 0.378
CAAATAAC: 0.348
AACAGTAC: 0.27
GGATATAC: 0.288
CATAGATA: 0.287
TAACAGTA: 0.293

Series 3
Target: ABI1, truncated, D143A, DHFR fusion (Arabidopsis thaliana)
Technique: DHFR PCA, deep sequencing
Sample: yeast
Setting: methotrexate growth selection, single substitutions
Added: (+)-ABA 0.39 µM
Reference: wild-type fitted maximum
Reading: higher = stronger binding
Quantity: relative binding score
Starting sequence: PYL1, truncated, DHFR fusion (Arabidopsis thaliana); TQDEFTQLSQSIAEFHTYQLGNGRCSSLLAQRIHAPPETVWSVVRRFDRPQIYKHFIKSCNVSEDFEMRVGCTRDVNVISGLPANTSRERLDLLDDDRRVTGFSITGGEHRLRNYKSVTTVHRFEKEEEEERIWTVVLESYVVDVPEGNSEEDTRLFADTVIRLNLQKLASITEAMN; partner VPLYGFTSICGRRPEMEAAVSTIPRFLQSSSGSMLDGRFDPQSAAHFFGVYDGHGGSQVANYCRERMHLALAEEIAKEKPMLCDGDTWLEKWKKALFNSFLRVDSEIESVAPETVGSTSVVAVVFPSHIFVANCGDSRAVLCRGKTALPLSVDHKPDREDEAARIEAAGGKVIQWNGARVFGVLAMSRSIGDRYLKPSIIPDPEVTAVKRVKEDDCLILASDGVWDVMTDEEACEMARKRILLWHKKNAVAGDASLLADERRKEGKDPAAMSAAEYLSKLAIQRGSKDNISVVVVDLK
L166S: -9.05%
T101Y: 4.27%
S42N: 34.8%
D97W: 5.94%
R74S: -5.78%

Further values, each from its own experiment
PhoQ, residues 284 288 289 292 302 303 SNSSNI — fold induction (PhoP, residues 12 14 15 18 19 IQSYL (Escherichia coli, UniProt P23836); Sort-seq, measured: YFP reporter; E. coli; PhoQ-PhoP variant library, added: 10 µM Mg2+; reference: high Mg2+ state, higher = stronger signaling): 0.495

Repeated from above (series 2):
GGATATAC: 0.288
CATAGATA: 0.287
